Experimental data pooled from the literature.
Lines come from different studies, so protocols differ. ± marks the error that the study gave.
APP Aβ42 aggregates: Amyloid-beta precursor protein, Aβ42 aggregates (APP, Homo sapiens, UniProt P05067)
Sequence of UniProt P05067 (whole entry, looked up): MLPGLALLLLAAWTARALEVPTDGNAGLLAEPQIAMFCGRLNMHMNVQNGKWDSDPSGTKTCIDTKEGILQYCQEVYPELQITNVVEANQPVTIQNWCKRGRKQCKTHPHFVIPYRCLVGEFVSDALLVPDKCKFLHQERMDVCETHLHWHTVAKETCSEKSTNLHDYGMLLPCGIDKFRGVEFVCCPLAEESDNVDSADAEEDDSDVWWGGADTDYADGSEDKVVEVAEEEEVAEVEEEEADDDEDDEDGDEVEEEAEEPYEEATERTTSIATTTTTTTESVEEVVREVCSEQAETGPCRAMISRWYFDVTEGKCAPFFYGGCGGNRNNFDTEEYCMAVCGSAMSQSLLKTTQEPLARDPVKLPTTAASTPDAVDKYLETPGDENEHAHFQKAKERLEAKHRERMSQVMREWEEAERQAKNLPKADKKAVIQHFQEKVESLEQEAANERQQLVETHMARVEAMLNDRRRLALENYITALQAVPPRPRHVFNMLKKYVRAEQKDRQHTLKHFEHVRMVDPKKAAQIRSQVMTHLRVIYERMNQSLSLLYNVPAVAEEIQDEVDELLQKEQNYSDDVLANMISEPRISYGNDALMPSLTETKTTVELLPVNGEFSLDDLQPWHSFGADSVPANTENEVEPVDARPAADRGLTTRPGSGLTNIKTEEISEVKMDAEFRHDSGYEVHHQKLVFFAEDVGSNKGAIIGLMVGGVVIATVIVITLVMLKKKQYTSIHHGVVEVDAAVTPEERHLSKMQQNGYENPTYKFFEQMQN
APP: Amyloid-beta precursor protein (APP, Homo sapiens, UniProt P05067)
APP Aβ40: Amyloid-beta precursor protein, Aβ40 (APP, Homo sapiens, UniProt P05067)

Compound | target | assay | system | conditions | scale | endpoint | value
CCN(CC)c1ccc(C=C(C#N)C(=O)OCCOCCOCCOC)cc1 | APP Aβ42 aggregates | binding, fluorescence spectroscopy | PBS | 4 µM, together with: pre-aggregated Aβ(1-42) 5 µM |  | excitation maximum | 442 nm
CC[C@H](C)[C@H](NC(=O)[C@@H](NC(=O)[C@@H](N)C(C)C)C(C)C)C(=O)NCC(N)=O | APP | amyloid aggregation, inhibitor, fluorescence |  | 10 µM, 24 h |  | inhibition | 5.4%
CC(C)C[C@@H]1NC(=O)CN(C)C(=O)CCCC(=O)NCCCC[C@@H](C(=O)N[C@@H](CCCNC(=N)N)C(N)=O)NC(=O)[C@H](Cc2ccccc2)NC(=O)[C@H](Cc2ccccc2)NC(=O)c2ccccc2NC1=O | APP Aβ40 | aggregation, ThT fluorescence |  | 5-fold molar excess, pH 7.4, 37 °C, together with: Aβ 40 µM |  | inhibition | ~95%
COCCOCCOCCOCCOC(=O)/C(C#N)=C/c1ccc2cc(N3CCCCC3)ccc2c1 | APP Aβ42 aggregates | fluorescence |  | together with: aggregated Abeta42 5 µM |  | emission maximum | 550 nm
CC[C@H](C)[C@@H]1NC(=O)[C@H]([C@@H](C)O)NC(=O)[C@H](Cc2ccc(O)cc2)NC(=O)[C@H](CCCNC(=N)N)NC(=O)[C@@H]2CCCN2C(=O)[C@H]2CCCN2C(=O)[C@H]([C@@H](C)O)NC(=O)[C@H](C(C)C)NC(=O)[C@H](C(C)C)NC(=O)[C@H](CCCCN)NC(=O)[C@H](CO)NC(=O)[C@@H](CCC(N)=O)NC(=O)[C@H](CO)NC(=O)[C@H](Cc2ccc(O)cc2)NC(=O)[C@H](CO)NC(=O)[C@H](Cc2ccc(O)cc2)NC(=O)[C@@H]2CCCN2C(=O)[C@H](CO)NC(=O)[C@H](CC(C)C)NC(=O)[C@H](CC(C)C)NC(=O)[C@H](C)NC(=O)[C@H](C)NC1=O | APP Aβ40 | amyloid-beta aggregation, centrifugation |  | 24 h, 37 °C, 30 min at 19500 g, together with: amyloid-beta |  | soluble fraction | 91%
COCCOCCOCCOC(=O)C(C#N)=Cc1ccc2cc(N3CCCCC3)ccc2c1 | APP Aβ42 aggregates | binding, fluorescence spectroscopy | PBS | 4 µM, together with: pre-aggregated Aβ(1-42) 5 µM |  | excitation maximum | 440 nm
N#C/C(=C\c1ccc2cc(N3CCCCC3)ccc2c1)C(=O)OCC(O)CO (stereo not drawn) | APP Aβ42 aggregates | fluorescence |  | together with: aggregated Abeta42 5 µM |  | excitation maximum | 410 nm
OC(Cc1cc(-c2ccc(C(O)C(F)(F)F)s2)sc1-c1ccc(-c2sc(-c3ccc(C(O)C(F)(F)F)s3)cc2CC(O)C(F)(F)F)s1)C(F)(F)F (stereo not drawn) | Amyloid-beta precursor protein, Aβ40 aggregates (APP, Homo sapiens, UniProt P05067) | fluorescence |  | Aβ aggregated 200 min | baseline: tau Kd over Aβ Kd | Kd ratio | 47
COc1cc(-c2nc3ccccc3s2)cc(CN(C)Cc2ccccn2)c1O | Amyloid-beta precursor protein, Aβ42 copper-bound (APP, Homo sapiens, UniProt P05067) | H2O2 production by Cu-Aβ42, inhibitor, HRP/Amplex Red |  | concentration not given, together with: sodium ascorbate |  | inhibition | > 90%
CC(C)C[C@@H]1NC(=O)CN(C)C(=O)CCCCC(=O)NCCCC[C@@H](C(=O)N[C@@H](CCCNC(=N)N)C(N)=O)NC(=O)[C@H](Cc2ccccc2)NC(=O)[C@H](Cc2ccccc2)NC(=O)[C@H](C(C)C)NC1=O | Amyloid-beta precursor protein, monomer (APP, Homo sapiens, UniProt P05067) | amyloid aggregation, inhibitor, fluorescence |  | 40 µM, pH 7.4 |  | inhibition | 70%
CC[C@H](C)[C@H](NC(=O)[C@@H](Cc1ccccc1)NC(=O)[C@@H](N)C(C)C)C(=O)N[C@@H](C)C(N)=O | APP | amyloid aggregation, inhibitor, fluorescence |  | 2 µM, 24 h |  | inhibition | 75.8%
COc1cc(OC)c2c(O)c3c(=O)cc(C)oc3c(-c3c(OC)cc4cc5c(c(O)c4c3OC)C(=O)CC(C)(O)O5)c2c1 (stereo not drawn) | APP | thioflavin-T fluorescence |  | 25 µM | baseline: untreated | Aβ aggregation | 27 ± 11.4%

For quick reference, copied from above:
Compound | target | assay | system | conditions | scale | endpoint | value
COc1cc(-c2nc3ccccc3s2)cc(CN(C)Cc2ccccn2)c1O | Amyloid-beta precursor protein, Aβ42 copper-bound (APP, Homo sapiens, UniProt P05067) | H2O2 production by Cu-Aβ42, inhibitor, HRP/Amplex Red |  | concentration not given, together with: sodium ascorbate |  | inhibition | > 90%
